Assay results from different studies.
Protocols differ between the studies behind these lines. Numbers after ± are the reported error.
DRD3: D(3) dopamine receptor (DRD3, Homo sapiens, UniProt P35462)
UniProt P35462, sequence (whole entry, looked up): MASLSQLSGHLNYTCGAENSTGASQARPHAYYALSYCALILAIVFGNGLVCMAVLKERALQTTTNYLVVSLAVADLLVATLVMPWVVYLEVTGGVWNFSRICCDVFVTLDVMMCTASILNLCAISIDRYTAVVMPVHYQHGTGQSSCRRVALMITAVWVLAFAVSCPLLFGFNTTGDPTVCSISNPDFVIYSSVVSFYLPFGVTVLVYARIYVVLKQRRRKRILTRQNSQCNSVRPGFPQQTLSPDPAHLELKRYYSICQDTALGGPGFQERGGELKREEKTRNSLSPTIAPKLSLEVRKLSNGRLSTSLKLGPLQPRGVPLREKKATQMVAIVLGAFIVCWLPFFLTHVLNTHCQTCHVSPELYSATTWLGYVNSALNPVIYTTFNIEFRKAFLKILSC
LYN: Tyrosine-protein kinase Lyn (LYN, Homo sapiens, UniProt P07948)
UniProt P07948, sequence (whole entry, looked up): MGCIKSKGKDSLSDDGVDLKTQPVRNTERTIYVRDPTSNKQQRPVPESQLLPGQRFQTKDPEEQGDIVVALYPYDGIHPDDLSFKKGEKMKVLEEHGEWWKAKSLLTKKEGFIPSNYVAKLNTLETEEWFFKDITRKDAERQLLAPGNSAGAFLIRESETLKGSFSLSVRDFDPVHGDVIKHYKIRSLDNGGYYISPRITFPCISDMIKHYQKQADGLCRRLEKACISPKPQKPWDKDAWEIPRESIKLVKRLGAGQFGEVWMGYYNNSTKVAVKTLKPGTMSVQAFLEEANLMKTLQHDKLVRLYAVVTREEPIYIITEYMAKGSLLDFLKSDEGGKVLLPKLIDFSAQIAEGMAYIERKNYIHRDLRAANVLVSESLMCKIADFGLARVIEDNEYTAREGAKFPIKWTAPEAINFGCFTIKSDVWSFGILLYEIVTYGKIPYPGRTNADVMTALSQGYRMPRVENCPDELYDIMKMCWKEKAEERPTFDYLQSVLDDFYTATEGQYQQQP
UniProt P24723, sequence (whole entry, looked up): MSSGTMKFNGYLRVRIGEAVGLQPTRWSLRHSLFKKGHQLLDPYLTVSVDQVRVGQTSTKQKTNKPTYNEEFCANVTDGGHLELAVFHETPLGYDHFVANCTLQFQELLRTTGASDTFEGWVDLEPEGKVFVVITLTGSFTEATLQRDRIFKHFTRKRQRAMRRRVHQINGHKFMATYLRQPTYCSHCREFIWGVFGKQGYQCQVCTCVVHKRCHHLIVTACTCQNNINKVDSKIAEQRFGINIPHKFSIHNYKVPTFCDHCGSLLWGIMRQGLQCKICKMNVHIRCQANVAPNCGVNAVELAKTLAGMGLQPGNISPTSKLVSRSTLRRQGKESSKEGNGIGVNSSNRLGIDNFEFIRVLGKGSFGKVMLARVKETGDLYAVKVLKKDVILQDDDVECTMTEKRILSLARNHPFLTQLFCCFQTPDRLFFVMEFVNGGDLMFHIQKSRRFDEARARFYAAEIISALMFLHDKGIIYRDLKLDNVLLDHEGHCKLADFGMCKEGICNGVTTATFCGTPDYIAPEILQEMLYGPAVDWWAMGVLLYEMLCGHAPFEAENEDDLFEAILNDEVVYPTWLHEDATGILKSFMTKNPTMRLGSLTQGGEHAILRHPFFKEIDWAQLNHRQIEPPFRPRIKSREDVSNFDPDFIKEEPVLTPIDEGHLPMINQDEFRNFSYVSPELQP
UniProt P41143, sequence (whole entry, unmodified, looked up): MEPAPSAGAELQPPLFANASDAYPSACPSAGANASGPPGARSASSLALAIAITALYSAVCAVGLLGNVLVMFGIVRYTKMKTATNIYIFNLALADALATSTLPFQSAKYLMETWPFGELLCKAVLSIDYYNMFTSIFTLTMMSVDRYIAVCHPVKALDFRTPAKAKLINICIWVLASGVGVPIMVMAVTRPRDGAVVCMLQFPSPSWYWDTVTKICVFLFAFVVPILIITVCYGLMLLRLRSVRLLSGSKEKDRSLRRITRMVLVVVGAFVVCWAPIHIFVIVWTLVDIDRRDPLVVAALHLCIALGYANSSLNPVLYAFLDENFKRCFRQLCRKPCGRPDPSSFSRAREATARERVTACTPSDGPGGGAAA
UniProt P42684, sequence (whole entry, looked up): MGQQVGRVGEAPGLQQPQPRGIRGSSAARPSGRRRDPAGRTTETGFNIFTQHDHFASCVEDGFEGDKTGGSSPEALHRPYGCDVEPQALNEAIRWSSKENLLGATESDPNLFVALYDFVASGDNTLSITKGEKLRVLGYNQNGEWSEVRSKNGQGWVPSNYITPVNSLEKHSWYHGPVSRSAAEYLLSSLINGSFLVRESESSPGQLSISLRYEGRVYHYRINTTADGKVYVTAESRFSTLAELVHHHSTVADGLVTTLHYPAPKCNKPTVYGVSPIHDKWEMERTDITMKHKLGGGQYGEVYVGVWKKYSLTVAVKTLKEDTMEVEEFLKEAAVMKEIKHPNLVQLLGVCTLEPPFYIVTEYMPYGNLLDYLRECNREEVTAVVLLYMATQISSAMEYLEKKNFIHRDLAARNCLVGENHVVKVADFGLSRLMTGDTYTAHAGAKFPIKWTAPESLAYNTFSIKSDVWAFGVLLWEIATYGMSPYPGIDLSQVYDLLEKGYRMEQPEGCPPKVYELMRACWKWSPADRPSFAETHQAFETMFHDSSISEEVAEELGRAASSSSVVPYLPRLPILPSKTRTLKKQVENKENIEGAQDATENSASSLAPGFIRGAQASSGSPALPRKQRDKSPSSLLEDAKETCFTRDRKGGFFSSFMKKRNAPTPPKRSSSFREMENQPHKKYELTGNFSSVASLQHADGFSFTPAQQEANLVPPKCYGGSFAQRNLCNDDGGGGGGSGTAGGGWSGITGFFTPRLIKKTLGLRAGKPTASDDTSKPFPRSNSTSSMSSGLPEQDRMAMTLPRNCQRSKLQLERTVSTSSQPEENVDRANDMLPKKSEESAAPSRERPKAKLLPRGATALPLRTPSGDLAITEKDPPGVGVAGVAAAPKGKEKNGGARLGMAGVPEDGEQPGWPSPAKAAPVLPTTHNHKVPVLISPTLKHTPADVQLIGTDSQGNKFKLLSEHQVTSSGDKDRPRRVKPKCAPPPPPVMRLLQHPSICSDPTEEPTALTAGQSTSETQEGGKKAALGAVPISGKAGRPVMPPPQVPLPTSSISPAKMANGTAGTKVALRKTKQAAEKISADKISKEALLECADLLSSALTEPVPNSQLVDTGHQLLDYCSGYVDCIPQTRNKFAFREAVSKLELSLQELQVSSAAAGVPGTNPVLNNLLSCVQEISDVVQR
UniProt P31645, sequence (whole entry, unmodified, looked up): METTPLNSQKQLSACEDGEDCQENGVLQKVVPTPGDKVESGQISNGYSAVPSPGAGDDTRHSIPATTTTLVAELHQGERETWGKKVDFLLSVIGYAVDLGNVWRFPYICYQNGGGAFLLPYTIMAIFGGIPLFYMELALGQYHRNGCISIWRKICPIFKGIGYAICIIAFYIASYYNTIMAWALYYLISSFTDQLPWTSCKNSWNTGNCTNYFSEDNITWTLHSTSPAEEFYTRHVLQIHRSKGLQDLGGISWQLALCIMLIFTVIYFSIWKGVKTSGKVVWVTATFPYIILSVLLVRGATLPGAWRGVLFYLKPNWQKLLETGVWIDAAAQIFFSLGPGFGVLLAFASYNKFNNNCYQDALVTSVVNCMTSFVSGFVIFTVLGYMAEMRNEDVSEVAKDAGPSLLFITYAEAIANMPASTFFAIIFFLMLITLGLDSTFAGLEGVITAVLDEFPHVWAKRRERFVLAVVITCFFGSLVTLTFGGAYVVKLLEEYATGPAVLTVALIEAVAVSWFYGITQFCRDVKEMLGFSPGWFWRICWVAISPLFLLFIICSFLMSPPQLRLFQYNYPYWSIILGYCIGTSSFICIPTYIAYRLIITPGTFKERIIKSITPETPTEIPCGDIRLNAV
UniProt P35348, sequence (whole entry, looked up): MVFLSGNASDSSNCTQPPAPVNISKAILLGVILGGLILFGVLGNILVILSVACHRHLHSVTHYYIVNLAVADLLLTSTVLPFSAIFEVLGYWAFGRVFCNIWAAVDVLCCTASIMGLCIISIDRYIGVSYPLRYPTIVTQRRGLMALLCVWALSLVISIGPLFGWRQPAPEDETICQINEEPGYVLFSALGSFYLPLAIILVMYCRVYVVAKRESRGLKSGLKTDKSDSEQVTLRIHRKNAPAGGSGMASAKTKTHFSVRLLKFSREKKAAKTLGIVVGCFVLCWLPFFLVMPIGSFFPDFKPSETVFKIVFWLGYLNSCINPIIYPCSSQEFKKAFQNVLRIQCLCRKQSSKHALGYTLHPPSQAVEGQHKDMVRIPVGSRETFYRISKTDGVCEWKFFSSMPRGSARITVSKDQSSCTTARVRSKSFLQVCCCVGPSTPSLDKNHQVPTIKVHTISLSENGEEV

CCN(CC)C(=O)c1ccc(C(c2cccc(O)c2)N2CC(C)N(Cc3ccccc3)CC2C)cc1 (stereo not shown) — Ki (OPRD1 (Homo sapiens, UniProt P41143, I277A)): 0.63 ± 0.27 nM
c1ccc2c(c1)OC[C@@H](CNCc1cccc3cccnc13)O2 — Ki (DRD3; binding): 100 nM
CCN(CC)C(=O)[C@@H]1C=C2c3cccc4c3c(cn4C(=O)c3ccco3)C[C@H]2N(C)C1 — Ki (ADRA1A (Homo sapiens, UniProt P35348); ligand displacement, radioligand): > 10000 nM
CC(C)[C@H]1NC(=O)C[C@H]2/C=C/CCSSC[C@@H](NC1=O)C(=O)N[C@H](Cc1cccc3ccccc13)C(=O)NCC(=O)O2 — inhibition (PRKCH (Homo sapiens, UniProt P24723); enzyme activity, inhibitor; 10 µM): 1.8%
CC(C)n1nc(-c2ccc3cc(OCc4ccccc4)ccc3c2)c2c(N)ncnc21 — Ki (LYN; enzyme activity, inhibitor): 790 nM
CCC[C@@H](C(=O)c1ccccc1)N1CCCC1 — Ki (SLC6A4 (Homo sapiens, UniProt P31645, Y95F); transporter uptake, inhibitor, radiometric): 126000 nM
Nc1ncnc2c1c(-c1cnc3[nH]ccc3c1)nn2C1CCCC1 — Ki (LYN; enzyme activity, inhibitor): 9.1 nM
CN(C)[C@H]1C[C@@]23CC[C@@]4(O2)C(=CC[C@]2(C)[C@@H](c5ccc6ccncc6c5)CC[C@H]24)C=C3[C@@H](O)[C@@H]1O — inhibition (TNK2 (Homo sapiens, UniProt Q07912); ATP probe labelling, inhibitor, KiNativ profiling; 0.1 µM): -10.1%
CCCNC(=O)C1CCCN(CCOc2ccc(Cl)cc2)C1 (stereo not shown) — Ki (DRD3; binding): 200 nM
O=C1NC2(CC2)COc2ncc(F)cc2[C@H]2COCCN2c2ccn3ncc1c3n2 — potassium (Sprague-Dawley rat, male, serum; oral, 20 mg/kg/day, 4 weeks daily, end of recovery period): 4.79 ± 0.1 mmol/L
CS(C)(=O)=Nc1ccc(-c2ccc(-c3nc4cc(O[C@@H]5CO[C@H]6[C@@H]5OC[C@H]6O)[nH]c4cc3F)cc2)cc1 — inhibition (ABL2 (Homo sapiens, UniProt P42684); enzyme activity, inhibitor; 10 µM): -11%
CC(C)n1nc(-c2cccc(O)c2)c2c(N)ncnc21 — Ki (LYN; enzyme activity, inhibitor): 210 nM
COC(=O)c1occc1CN1CCC(c2c[nH]c3ccccc23)CC1 — Ki (DRD3; binding): 100 nM

Some of these lines once more:
CCN(CC)C(=O)c1ccc(C(c2cccc(O)c2)N2CC(C)N(Cc3ccccc3)CC2C)cc1 (stereo not shown) — Ki (OPRD1 (Homo sapiens, UniProt P41143, I277A)): 0.63 ± 0.27 nM
